Published values gathered from unrelated publications.
Compare with care: the assays were run in different laboratories. Numbers after ± are the reported error.
Cell line: MCF7

| Structure (SMILES) | test | conditions | scale | quantity | result |
| --- | --- | --- | --- | --- | --- |
| FC(F)(F)C1(c2ccc(CN3CCN(C(c4ccccc4)c4ccc(Cl)cc4)CC3)cc2)CC1 (stereo not shown) | – | concentration not given, 72 h | – | activity | inactive |
| NS(=O)(=O)c1ccc(/N=N/c2ccc(O)c(/C=N/c3cc(Cl)ccc3O)c2)cc1 | MTT | 72 h | reference: MCF10A IC50 over MCF7 IC50 | selectivity index | 1.75 |
| O=C1c2ccccc2C(=O)c2c1ccc1c2C(C(=O)NCc2ccccc2)C(=O)C1c1ccccc1 (stereo not shown) | cell growth or viability | – | – | TGI | 18000 nM |
| CCCCCCCCCCCCCCCC(=O)N[C@@H](C(=O)N[C@H](CO)C(=O)N[C@H](C)C(=O)N[C@H](Cc1ccc(O)cc1)C(=O)N[C@H](CC(C)C)C(=O)N[C@@H](C(=O)NCC(=O)N[C@H](CC(N)=O)C(=O)NCC(=O)N[C@H](CC(C)C)C(=O)N[C@H](CCCNC(=N)N)C(=O)N[C@H](CO)C(=O)N[C@H](CC(N)=O)C(=O)N[C@H](CC(N)=O)C(=O)N[C@H](CCCNC(=N)N)C(N)=O)C(C)C)C(C)C | – | 48 h, 1% FBS | – | TGI | 100 ± 5 nM |
| COc1ccc(NC(=O)CCc2nc3cc(Cl)ccc3[nH]c2=O)cc1 | annexin V-FITC flow cytometry | concentration not given | reference: untreated control | total apoptotic cells | 10.2 fold |
| O=C(c1ccc2ccccc2c1)c1cn(-c2ccccc2)nc1C1=Nn2c(Cc3nnc4n3N=C(c3nn(-c5ccccc5)cc3C(=O)c3ccc5ccccc5c3)CS4)nnc2SC1 | RT-PCR, measured: caspase-3 | IC50, 48 h | reference: untreated | mRNA level | 12.6 fold |
| CC[C@H]([C@H](CC)c1ccc(O)cc1)[C@@H](C)c1ccc(O)cc1 | cell growth or viability, ATP luminescence | 5 days | – | EC50 | 0.0096 nM |
| O=C(O)C=Cc1ccc(C(=C2CCCCC2)c2ccc(O)cc2)cc1 | antagonist, real-time PCR | 1 µM, together with: 1 nM estradiol | – | pS2 mRNA level | no effect |
| CCC[C@@H]1O[C@@H](Oc2c(-c3ccc(O)cc3)oc3cc(O)cc(O)c3c2=O)[C@H](OC(C)=O)[C@H](OC(C)=O)[C@H]1NC(C)=O | inhibitor, immunoblot | 25 and 50 µM, together with: PMA | – | cyclin D1 level | no effect |
| CC/C=C\C/C=C\C/C=C\C/C=C\C/C=C\C/C=C\CCC(=O)Nc1ccn(C2OC(CO)C(O)C2(F)F)c(=O)n1 (stereo not shown) | – | – | – | total growth inhibition concentration | 13.4 µM |
| COc1ccc(-c2cc(COC3c4cc5c(cc4C(c4cc(OC)c(OC)c(OC)c4)C4C(=O)OCC34)OCO5)on2)cc1 (stereo not shown) | Caspase-Glo 3/7 | 20 µg/mL, 24 h | – | caspase-3/7 activation | 94.5% |
| COc1ccc(CC(C)=C(c2ccc(Cl)cc2)c2ccc(OCCCN(C)C)cc2)cc1 | cell growth or viability | 10 µM | – | inhibition | 83.8% |
| COc1cc(/C=C/C(=O)CC(C)=O)ccc1O | – | 25 µM, 48 h | reference: untreated | GSH/GSSG ratio increase | ~7 fold |
| [Cl][Pd-2]1([Cl])[N+](=Cc2ccc[nH]2)Cc2cccc[n+]21 | MTT | 100 µg/mL, 24 h | – | viability reduction | > 80% |
| CCN(CC)CCOc1ccc(C(=C(C)Cc2ccc(Cl)cc2)c2ccc(Cl)cc2)cc1 | cell growth or viability | 10 µM | – | inhibition | 30.9% |
| N=C(N)NCCC[C@H](NC(=O)[C@H](Cc1c[nH]c2ccccc12)NC(=O)[C@H](CCC(N)=O)NC(=O)[C@H](Cc1c[nH]c2ccccc12)NC(=O)[C@H](CCCNC(=N)N)NC(=O)[C@H](Cc1c[nH]c2ccccc12)NC(=O)[C@H](CCC(N)=O)NC(=O)[C@@H](N)Cc1c[nH]c2ccccc12)C(N)=O | – | – | reference: MCF-12 IC50 over MCF7 IC50 | selectivity ratio | > 1.1 |
| CN1CCC2(CC1)C/C(=N\NC(=O)Nc1ccccc1)c1ccccc1O2 | PI staining, flow cytometry | concentration not given, %S | – | cell cycle distribution | 43.2% |
| CN(C)c1ccc(/C=C/c2cc(/C=C3\Sc4ccccc4N3CCCN3CCCC3)c3ccccc3[n+]2C)cc1 | Western blot | concentration not given, 36 h | – | γ-H2AX and 53BP1 levels | increased |
| CC(=O)OC[C@H]1O[C@@H](Sc2sc(C(=O)c3ccc(C)cc3)c(N)c2-c2nc3ccccc3s2)[C@H](OC(C)=O)[C@@H](OC(C)=O)[C@H]1OC(C)=O | SRB | 10 µM, 48 h | reference: untreated | growth | 100% |

A few entries again:
| Structure (SMILES) | test | conditions | scale | quantity | result |
| --- | --- | --- | --- | --- | --- |
| CC(=O)OC[C@H]1O[C@@H](Sc2sc(C(=O)c3ccc(C)cc3)c(N)c2-c2nc3ccccc3s2)[C@H](OC(C)=O)[C@@H](OC(C)=O)[C@H]1OC(C)=O | SRB | 10 µM, 48 h | reference: untreated | growth | 100% |
| COc1ccc(NC(=O)CCc2nc3cc(Cl)ccc3[nH]c2=O)cc1 | annexin V-FITC flow cytometry | concentration not given | reference: untreated control | total apoptotic cells | 10.2 fold |
| O=C(O)C=Cc1ccc(C(=C2CCCCC2)c2ccc(O)cc2)cc1 | antagonist, real-time PCR | 1 µM, together with: 1 nM estradiol | – | pS2 mRNA level | no effect |
